Measurements pooled from the literature.
Each numbered part is a random draw from the data of one study; scales do not carry over between parts.

Series 1
Target: RNA binding protein fox-1 homolog 2, RRM domain, GST-SBP tag (RBFOX2, Homo sapiens, UniProt O43251-10, residues 100-194)
Technique: RNA Bind-n-Seq
Form: RNA
Medium: in vitro
Tested at: 365 nM
Notes: natural RNA segment, single round, ends assumed
Relative to: no-protein control
Reading: higher = stronger binding
Residues (chain): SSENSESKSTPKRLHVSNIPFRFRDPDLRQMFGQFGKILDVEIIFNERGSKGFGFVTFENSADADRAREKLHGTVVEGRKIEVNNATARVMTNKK
Under “RBNS enrichment (R)”, `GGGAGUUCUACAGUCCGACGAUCGAGAGACUAAGGGCACUUCCUGAGGUUCAUUACCACCUGGGGCAGAAGGACAGGGAGACAGCAACCAUCGCCUGACCACGCCGACCACAGGGCCUUGAAUCCUUUUUUGUUGGAAUUCUCGGGUGCCAA` is recorded as 0.813.
For `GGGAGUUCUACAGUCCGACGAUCCGAGGUCCUCACUUCCAGGAGCCUGUCCUUGCAAGAUGCAAUCAUCGUUCCUGCUUUUUCAUUGUCAUUAAAUUCUGUAGAAACCCAUUGUCAUUAGCUCCAAGUGUAAAUGGAAUUCUCGGGUGCCAA`, “RBNS enrichment (R)” read 0.679.
For `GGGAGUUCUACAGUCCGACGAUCCCUGUAUCCUGUGAGGCCUGGAGCUUUUCAAACACUAGAGGGGGCCUUAGAGUAAGUGGAAAGGACUUCUAAAAUGUGUGUGUGCUUUGCCUUCCAGAAAGCCAUCUUUGUGGAAUUCUCGGGUGCCAA`, “RBNS enrichment (R)” read 0.734.
`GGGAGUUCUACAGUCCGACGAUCUUGCUAUGGCACUUUUCUAUAACCUUUUCAUUCCUGUGUACAGUAGCUUAAAAUUGCAGUGAUUGAGCAUAACCUACUUGUUUGUAUAAAUUAUUGAAAUCCAUUUGCACUGGAAUUCUCGGGUGCCAA`: “RBNS enrichment (R)” 0.972.
`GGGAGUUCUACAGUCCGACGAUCGAGGACUUGGUUUCUCAUCCACUUGAGGACUAUUUCCAGGUGCCAGGAGAAACCGUGCCCAUUUAGAAGAUGGGGCAUUAACUUGUGUAACAGGACUUGGUAGUUUCCACUGGAAUUCUCGGGUGCCAA` — result for “RBNS enrichment (R)”: 0.286.
For `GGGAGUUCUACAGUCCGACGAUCCUGCCUCAGUGACUGGGCCUUUACACCGCUGCCAGUCACAGUGCAGCAGCAGUCUAAUGCCAAGGUGCUCUAGAAACACUAAUGUUCCUCCAGGGGGGACUCCUCCCCACUGGAAUUCUCGGGUGCCAA`, “RBNS enrichment (R)” read 0.239.
For `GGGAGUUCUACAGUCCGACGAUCUAACAGGAACUCGGAAGGUAGAACUUAGAAUUCAGAACUUGGGUUUCAAUUGUAGAAUUUGGAAUCUGGAAUACAGAAUUGGGAAGAAGAACAGAGAUGACAAAAGACCAUGGAAUUCUCGGGUGCCAA`, “RBNS enrichment (R)” read 0.653.
`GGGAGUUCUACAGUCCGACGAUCCCCUCAAGAUCCUCAAGUUGAAUGUUUUGUAGAUCUUCAAGGAUAAGCCUUCUGCUUAUUCUCCUAGCACAAUGCAAGGAAAUUUUACUUUUUAAAUCUUAGAGAGAUUCUGGAAUUCUCGGGUGCCAA` — result for “RBNS enrichment (R)”: 6.23.

Series 2
Target: Histone acetyltransferase KAT6A, winged helix 2, GST fusion (KAT6A, Homo sapiens, UniProt Q92794, residues 85-181)
Technique: protein binding microarray
Form: double-stranded DNA, one strand shown
Medium: in vitro
Tested at: not given
Notes: 8-mer, flanks averaged, mean of 2 arrays, mostly near background
Relative to: not given
Reading: higher = stronger binding
Residues (chain): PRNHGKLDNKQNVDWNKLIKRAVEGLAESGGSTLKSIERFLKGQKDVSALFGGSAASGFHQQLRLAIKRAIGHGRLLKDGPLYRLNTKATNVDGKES
`CTGCGTGA` has an E-score of 0.0493.
`ACGATCGC` gave an E-score of -0.145.
For `ATGGTCGG`, the E-score was 0.0476.
With `AGAAGTGC` the E-score was -0.0376.
`AAACGAAC` has an E-score of 0.13.
With `TCTGCCCA` the E-score was 0.0125.
The E-score of `CAACCAGG` is reported as 0.137.
The E-score of `TAGAGTGA` is reported as -0.00785.
`ACATTATG` gave an E-score of -0.066.
`GCGAAGAA` gave an E-score of 0.0957.
`GTCTATGA` gave an E-score of -0.00898.
The E-score of `AATGCTTA` is reported as -0.127.
The E-score of `AGTTTCTC` is reported as 0.0812.
`ACTCAAAC` gave an E-score of 0.135.
For `AGTGGCGA`, the E-score was 0.164.
`CTAGGTTC` gave an E-score of 0.033.
`CATTCTCC` gave an E-score of -0.0377.
`TTTGAAAA` gave an E-score of 0.191.
`ATACATCG` gave an E-score of -0.0272.
For `CTCTGATC`, the E-score was 0.0377.
The E-score of `CAACGAGC` is reported as 0.0214.
With `GCCCGGAA` the E-score was 0.139.
The E-score of `CCGCTGAG` is reported as 0.0233.
With `AACTTCGC` the E-score was 0.0164.
For `ATGTGTAA`, the E-score was -0.17.

Series 3
Target: Prothrombin, mature alpha-thrombin (F2, Homo sapiens, UniProt P00734)
Technique: aptamer microarray, sandwich
Form: DNA with 2'F-ANA
Medium: in vitro
Tested at: 200 nM
Notes: whole 15-mer aptamer, many near background
Together with: Cy3 exosite-II aptamer, 400 nM
Reading: higher = stronger binding
Strand: GGTTGGTGTGGTTGG
`2'F-ANA at 1 3 4 6 9 10 12 13 15` — result for “mean fluorescence intensity”: 154 a.u.
`2'F-ANA at 1 2 3 4 8 11 13`: “mean fluorescence intensity” 161 a.u.
`2'F-ANA at 2 3 5 6 10 11`: “mean fluorescence intensity” 48.7 a.u.
For `2'F-ANA at 2 3 5 6 9 11 13`, “mean fluorescence intensity” read 68.4 a.u.
For `2'F-ANA at 1 2 3 4 5 6 10 11 13`, “mean fluorescence intensity” read 100 a.u.
`2'F-ANA at 3 6 8 9 10 12 13 15` — result for “mean fluorescence intensity”: 401 a.u.
`2'F-ANA at 2 3 4 6 8 9 11 13 14` — result for “mean fluorescence intensity”: 196 a.u.
Under “mean fluorescence intensity”, `2'F-ANA at 4 6 7 8 9 10 11 12 14` is recorded as 61 a.u.
`2'F-ANA at 3 5 6 9 10 11 12 14 15`: “mean fluorescence intensity” 95.8 a.u.
`2'F-ANA at 3 7 8 9 10 11 12 14`: “mean fluorescence intensity” 465 a.u.
`2'F-ANA at 3 6 7 8 9 10 12 13 14 15`: “mean fluorescence intensity” 399 a.u.
Under “mean fluorescence intensity”, `2'F-ANA at 1 2 3 4 6 7 8 13 14 15` is recorded as 68.2 a.u.
`2'F-ANA at 1 4 5 6 11`: “mean fluorescence intensity” 127 a.u.
Under “mean fluorescence intensity”, `2'F-ANA at 2 3 6 7 12 13 14` is recorded as 393 a.u.
Under “mean fluorescence intensity”, `2'F-ANA at 3 6 9 12 15` is recorded as 1160 a.u.
`2'F-ANA at 3 4 5 8 10 11 13 15` — result for “mean fluorescence intensity”: 70.4 a.u.
For `2'F-ANA at 4 5 6 7 10 11 12 13 15`, “mean fluorescence intensity” read 80.1 a.u.
Under “mean fluorescence intensity”, `2'F-ANA at 1 2 6 7 9 10 13 14 15` is recorded as 48.5 a.u.
For `2'F-ANA at 1 4 5 6 12 14 15`, “mean fluorescence intensity” read 47.1 a.u.
`2'F-ANA at 1 2 4 5 6 7 9 11` — result for “mean fluorescence intensity”: 53.5 a.u.
`2'F-ANA at 2 3 5 6 7 8 10 12 13 14` — result for “mean fluorescence intensity”: 49.4 a.u.
`2'F-ANA at 2 3 4 5 7 8 9 10 11`: “mean fluorescence intensity” 57.4 a.u.
`2'F-ANA at 5 6 8 9 10 11 13 14 15` — result for “mean fluorescence intensity”: 51.3 a.u.
`2'F-ANA at 2 7 9 10 11 12 14` — result for “mean fluorescence intensity”: 88.7 a.u.

Series 4
Target: Phosphate system positive regulatory protein PHO4, full length, GST-tagged (PHO4, Saccharomyces cerevisiae, UniProt P07270, residues 1-312)
Technique: competition protein-binding microarray
Form: double-stranded DNA, one strand shown
Medium: in vitro
Tested at: 2 µM
Notes: whole 60-bp probe, lowest competitor level
Together with: Cbf1 competitor, 0.05 µM
Reading: higher = stronger binding
Target sequence (chain): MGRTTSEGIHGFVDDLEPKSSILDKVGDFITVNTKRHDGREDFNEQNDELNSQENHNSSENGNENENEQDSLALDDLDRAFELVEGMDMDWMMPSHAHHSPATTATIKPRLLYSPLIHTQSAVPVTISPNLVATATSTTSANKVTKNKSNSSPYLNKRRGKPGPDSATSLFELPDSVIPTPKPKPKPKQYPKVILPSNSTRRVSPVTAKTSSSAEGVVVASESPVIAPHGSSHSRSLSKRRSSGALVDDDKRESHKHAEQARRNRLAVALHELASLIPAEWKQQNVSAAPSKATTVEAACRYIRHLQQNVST
`AAAGCGGTAATTTGTCACAGCACTTCACATATCTATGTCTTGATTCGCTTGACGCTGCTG` has a fluorescence intensity of 3870 a.u.
The fluorescence intensity of `GTCTTGTCTCATTGGTGGGTGGGTGTCCCCACTTCAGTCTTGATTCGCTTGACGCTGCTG` is reported as 4630 a.u.
`CTGAGCTTAATAAGCACCGTGCGATTACCTTCGTTTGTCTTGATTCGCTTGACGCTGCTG` gave a fluorescence intensity of 6940 a.u.
`AAATGGGCAGAATGCCACATGTTAGCAATGCAACGAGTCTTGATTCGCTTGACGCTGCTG` gave a fluorescence intensity of 11100 a.u.
`AAATTACTAAGTTGATGAGTGGGTGACGCCGTATGAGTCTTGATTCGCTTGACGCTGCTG` has a fluorescence intensity of 4240 a.u.
`CGTCCTAGTGATTGCTAAGTGGGTGCCATGAGGAAGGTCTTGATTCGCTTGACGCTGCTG` gave a fluorescence intensity of 6710 a.u.
The fluorescence intensity of `CGAAGCACTCTCCAACACGTGACTCGGATAACGACCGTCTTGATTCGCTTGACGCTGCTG` is reported as 17200 a.u.
`TGTTCAAGTGCTTTTCACGTGTAGGATTACTTAACCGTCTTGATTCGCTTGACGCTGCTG` has a fluorescence intensity of 11500 a.u.
`TGAAGAGTACTTACTGATGTGATATTCGACAGGATCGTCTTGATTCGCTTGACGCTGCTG` gave a fluorescence intensity of 2610 a.u.
`GTCTTGTCTCATTGTCACGTTACTTTCCCCACTTCAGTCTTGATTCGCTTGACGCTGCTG` gave a fluorescence intensity of 7510 a.u.
The fluorescence intensity of `AATCGCTATCACTTACATGTGATATCATTTCTGTACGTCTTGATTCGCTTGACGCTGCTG` is reported as 7450 a.u.
`TGGAATGTATACCTGCACACGCTTGGTAAGGCCAACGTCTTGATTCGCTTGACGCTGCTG` gave a fluorescence intensity of 6870 a.u.
`CATACCCAACCTTGGACAGTGGGTGAAGATATTTGTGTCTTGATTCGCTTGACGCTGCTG` has a fluorescence intensity of 3380 a.u.
With `CGTCCTAGTGATTGTCACCACACTTCCATGAGGAAGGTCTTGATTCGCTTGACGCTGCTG` the fluorescence intensity was 6040 a.u.
The fluorescence intensity of `CTTTCCCGATCTTGTCACATCACTTTAGCACATTTGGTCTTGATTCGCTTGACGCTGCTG` is reported as 4170 a.u.
`TTTAGGCCGCAGTGGGTCGTGCCAGACGGCAGCGATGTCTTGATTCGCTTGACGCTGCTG` gave a fluorescence intensity of 7250 a.u.
`CTTCTGTAAATTTGTCCTGTGGGTGGACGCGCCCCGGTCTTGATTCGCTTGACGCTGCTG` gave a fluorescence intensity of 4390 a.u.
The fluorescence intensity of `CGAATTACTTGACGTATCGTGCCGATCCGTTGATGCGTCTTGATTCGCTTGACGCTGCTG` is reported as 7130 a.u.
`ACTCAAAAGCGTACTCACGTTTTGAAGAAGAACCCAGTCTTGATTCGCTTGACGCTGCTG` has a fluorescence intensity of 10300 a.u.
